Experimental data collected from several papers.
Numbered parts are unrelated; each lists some results of a single study. Several values in a cell are separate wells, animals, samples, runs or records.
UniProt P27448, sequence (whole entry, looked up): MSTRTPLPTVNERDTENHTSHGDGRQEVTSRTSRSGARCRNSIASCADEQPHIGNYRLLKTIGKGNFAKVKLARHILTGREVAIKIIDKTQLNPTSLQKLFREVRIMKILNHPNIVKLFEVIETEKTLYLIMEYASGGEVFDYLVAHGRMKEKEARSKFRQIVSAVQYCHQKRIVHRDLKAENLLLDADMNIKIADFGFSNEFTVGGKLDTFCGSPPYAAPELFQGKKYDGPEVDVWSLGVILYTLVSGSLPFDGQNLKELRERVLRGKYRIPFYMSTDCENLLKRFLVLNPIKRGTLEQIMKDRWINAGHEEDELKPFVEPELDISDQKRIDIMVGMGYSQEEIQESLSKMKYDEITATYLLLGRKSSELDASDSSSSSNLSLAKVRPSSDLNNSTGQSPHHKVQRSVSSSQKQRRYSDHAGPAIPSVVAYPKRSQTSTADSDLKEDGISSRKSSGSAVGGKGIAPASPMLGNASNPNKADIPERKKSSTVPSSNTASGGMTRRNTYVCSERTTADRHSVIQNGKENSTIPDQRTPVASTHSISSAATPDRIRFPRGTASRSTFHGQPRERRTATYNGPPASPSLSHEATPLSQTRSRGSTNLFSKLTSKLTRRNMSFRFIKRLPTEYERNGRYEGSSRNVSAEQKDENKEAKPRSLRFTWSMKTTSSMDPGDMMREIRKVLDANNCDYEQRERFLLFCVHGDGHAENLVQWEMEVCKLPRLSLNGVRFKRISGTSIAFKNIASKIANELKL
UniProt O95747, sequence (whole entry, looked up): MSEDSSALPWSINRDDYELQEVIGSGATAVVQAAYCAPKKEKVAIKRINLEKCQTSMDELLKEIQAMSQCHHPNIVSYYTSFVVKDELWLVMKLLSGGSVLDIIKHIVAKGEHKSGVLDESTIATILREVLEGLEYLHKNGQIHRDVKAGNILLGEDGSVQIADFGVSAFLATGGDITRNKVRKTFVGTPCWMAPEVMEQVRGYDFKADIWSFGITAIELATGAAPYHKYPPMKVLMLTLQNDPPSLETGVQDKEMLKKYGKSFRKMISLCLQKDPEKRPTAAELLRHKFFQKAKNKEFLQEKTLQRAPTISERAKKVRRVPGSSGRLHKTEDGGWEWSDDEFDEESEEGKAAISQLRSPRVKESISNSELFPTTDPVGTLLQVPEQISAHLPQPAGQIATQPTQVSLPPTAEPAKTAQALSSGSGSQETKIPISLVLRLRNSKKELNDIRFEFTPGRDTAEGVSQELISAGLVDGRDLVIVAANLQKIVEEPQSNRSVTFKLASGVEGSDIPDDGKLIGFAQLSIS
UniProt P53778, sequence (whole entry, looked up): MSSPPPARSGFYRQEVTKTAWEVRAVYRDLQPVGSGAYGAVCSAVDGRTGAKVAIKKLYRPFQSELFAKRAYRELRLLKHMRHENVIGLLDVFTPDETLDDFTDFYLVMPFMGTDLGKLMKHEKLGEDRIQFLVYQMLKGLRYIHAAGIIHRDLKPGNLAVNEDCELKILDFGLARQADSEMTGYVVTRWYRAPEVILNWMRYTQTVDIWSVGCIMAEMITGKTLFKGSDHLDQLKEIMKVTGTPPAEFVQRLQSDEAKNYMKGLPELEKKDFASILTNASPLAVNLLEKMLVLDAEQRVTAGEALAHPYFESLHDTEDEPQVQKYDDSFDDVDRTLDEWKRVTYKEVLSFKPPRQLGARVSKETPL
UniProt Q9Y2U5, sequence (whole entry, looked up): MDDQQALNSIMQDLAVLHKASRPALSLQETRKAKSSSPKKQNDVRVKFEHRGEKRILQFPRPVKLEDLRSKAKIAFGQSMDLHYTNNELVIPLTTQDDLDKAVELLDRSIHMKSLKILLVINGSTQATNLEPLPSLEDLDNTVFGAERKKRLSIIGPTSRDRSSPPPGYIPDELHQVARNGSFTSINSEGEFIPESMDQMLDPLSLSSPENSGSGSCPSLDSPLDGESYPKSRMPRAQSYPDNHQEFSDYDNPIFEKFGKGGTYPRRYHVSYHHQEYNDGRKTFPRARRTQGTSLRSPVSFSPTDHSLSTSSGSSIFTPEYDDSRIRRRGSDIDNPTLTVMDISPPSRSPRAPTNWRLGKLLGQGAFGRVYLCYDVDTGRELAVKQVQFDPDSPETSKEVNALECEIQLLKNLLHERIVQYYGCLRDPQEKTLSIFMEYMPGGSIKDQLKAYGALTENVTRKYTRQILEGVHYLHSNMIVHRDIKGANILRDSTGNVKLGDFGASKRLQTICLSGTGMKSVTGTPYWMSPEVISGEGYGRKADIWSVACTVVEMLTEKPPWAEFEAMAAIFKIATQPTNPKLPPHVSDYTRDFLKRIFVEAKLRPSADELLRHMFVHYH
UniProt Q9UL54, sequence (whole entry, looked up): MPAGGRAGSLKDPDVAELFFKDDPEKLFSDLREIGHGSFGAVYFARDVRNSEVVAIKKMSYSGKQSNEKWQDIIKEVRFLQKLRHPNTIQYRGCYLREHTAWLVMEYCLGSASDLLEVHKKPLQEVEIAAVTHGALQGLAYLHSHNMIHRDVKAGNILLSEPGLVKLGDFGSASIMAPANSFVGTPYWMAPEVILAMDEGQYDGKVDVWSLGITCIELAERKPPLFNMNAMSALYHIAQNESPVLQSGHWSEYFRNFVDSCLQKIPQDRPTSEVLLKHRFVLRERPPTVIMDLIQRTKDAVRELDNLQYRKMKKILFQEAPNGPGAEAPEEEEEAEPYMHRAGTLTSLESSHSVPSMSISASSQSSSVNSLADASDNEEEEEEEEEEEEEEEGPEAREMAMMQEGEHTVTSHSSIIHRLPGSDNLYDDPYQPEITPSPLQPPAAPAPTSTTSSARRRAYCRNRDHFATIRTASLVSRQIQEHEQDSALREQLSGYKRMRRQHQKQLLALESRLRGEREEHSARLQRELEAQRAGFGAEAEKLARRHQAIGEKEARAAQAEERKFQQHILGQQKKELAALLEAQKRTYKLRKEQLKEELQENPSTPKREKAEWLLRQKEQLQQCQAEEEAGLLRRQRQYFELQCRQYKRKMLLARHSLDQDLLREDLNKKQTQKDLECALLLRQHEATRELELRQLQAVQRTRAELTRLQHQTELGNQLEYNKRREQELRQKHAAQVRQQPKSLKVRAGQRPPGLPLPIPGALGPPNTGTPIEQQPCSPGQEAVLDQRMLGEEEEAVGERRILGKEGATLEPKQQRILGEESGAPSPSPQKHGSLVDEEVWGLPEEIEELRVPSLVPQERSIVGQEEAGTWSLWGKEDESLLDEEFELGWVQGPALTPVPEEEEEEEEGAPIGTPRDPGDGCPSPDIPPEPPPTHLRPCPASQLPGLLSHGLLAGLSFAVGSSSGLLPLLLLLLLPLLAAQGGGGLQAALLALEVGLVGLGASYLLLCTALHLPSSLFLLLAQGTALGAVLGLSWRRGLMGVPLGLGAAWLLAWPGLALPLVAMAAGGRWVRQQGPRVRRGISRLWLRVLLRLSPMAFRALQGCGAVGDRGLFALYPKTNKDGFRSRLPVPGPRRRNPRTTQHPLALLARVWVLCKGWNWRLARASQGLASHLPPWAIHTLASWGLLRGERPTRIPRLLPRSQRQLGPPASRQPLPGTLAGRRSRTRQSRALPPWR
UniProt Q04912, sequence (whole entry, looked up): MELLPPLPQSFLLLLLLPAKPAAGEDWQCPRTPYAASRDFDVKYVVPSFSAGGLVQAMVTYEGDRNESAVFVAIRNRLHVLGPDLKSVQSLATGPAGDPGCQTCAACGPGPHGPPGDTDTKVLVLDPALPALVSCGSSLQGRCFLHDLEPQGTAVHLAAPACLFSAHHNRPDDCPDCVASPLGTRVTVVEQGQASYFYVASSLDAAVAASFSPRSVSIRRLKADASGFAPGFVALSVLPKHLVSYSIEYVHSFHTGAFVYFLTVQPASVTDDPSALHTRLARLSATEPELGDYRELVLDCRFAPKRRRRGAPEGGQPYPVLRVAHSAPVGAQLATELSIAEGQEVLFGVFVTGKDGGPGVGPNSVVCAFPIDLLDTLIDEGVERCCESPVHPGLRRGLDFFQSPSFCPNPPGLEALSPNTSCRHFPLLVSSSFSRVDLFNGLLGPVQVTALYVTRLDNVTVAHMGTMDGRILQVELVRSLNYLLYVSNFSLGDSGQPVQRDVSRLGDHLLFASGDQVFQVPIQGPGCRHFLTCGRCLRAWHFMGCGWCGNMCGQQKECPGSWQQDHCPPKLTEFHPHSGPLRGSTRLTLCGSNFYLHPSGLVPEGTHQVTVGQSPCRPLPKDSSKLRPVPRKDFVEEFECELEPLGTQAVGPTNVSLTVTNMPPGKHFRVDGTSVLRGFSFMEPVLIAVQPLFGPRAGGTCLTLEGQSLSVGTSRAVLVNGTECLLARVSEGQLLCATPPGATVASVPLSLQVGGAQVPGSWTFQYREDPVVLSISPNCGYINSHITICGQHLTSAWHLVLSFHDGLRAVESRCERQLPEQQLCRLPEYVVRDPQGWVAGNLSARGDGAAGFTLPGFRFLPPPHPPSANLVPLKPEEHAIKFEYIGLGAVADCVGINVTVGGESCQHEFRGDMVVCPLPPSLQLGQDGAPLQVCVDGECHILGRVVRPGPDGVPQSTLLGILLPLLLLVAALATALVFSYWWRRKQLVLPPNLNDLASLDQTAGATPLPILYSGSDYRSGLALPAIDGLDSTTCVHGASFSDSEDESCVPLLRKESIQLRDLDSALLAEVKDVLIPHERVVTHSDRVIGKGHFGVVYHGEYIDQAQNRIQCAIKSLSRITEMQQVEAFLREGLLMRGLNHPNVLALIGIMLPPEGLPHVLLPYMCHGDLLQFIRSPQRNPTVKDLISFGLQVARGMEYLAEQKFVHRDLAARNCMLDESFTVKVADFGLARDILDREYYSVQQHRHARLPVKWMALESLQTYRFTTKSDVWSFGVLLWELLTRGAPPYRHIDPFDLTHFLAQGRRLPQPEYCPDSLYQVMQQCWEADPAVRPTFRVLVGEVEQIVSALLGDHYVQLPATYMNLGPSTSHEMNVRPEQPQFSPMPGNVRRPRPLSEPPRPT

Sample 1
Cell line: mouse MPNST tumor cells
Technique: high-content immunofluorescence imaging
Measured: nuclear SOX9
Tested at: 10 µM
Time: 12 h
Notes: mean of 2 replicates
Baseline: DMSO control
Reading: higher = more nuclear SOX9
Structure (SMILES) | nuclear SOX9 intensity
C[C@H]1O[C@@H](O[C@H]2[C@@H](O)C[C@H](O[C@H]3[C@@H](O)C[C@H](O[C@H]4CC[C@@]5(C)[C@H](CC[C@@H]6[C@@H]5C[C@@H](O)[C@]5(C)[C@@H](C7=CC(=O)OC7)CC[C@]65O)C4)O[C@@H]3C)O[C@@H]2C)C[C@H](O)[C@@H]1O | 101 % of DMSO
C/N=C(/NC#N)NCCSCc1csc(NC(=N)N)n1 | 87.3 % of DMSO
O=C(Nc1ccc(Cl)cc1)C1CCCN(C(=O)c2cccc(-c3ccco3)c2)C1 (centres unmarked) | 83.6 % of DMSO

Sample 2
Compound: CN([C@@H]1CCc2c(CC(=O)O)c3cc(S(C)(=O)=O)ccc3n2C1)S(=O)(=O)c1ccc(F)cc1
Effect on: cell-free assay
Technique: competition with immobilised ligand
Tested at: 1 µM
target | remaining binding
Serine/threonine-protein kinase MARK2 (MARK2, Homo sapiens, UniProt Q7KZI7) | 100%
Serine/threonine-protein kinase ULK3 (ULK3, Homo sapiens, UniProt Q6PHR2) | 79%
Macrophage-stimulating protein receptor (MST1R, Homo sapiens, UniProt Q04912) | 94%
MAP/microtubule affinity-regulating kinase 3 (MARK3, Homo sapiens, UniProt P27448) | 100%
Serine/threonine-protein kinase OSR1 (OXSR1, Homo sapiens, UniProt O95747) | 100%
Atypical kinase COQ8B, mitochondrial (COQ8B, Homo sapiens, UniProt Q96D53) | 100%
Serine/threonine-protein kinase TAO2 (TAOK2, Homo sapiens, UniProt Q9UL54) | 100%
Mitogen-activated protein kinase 12 (MAPK12, Homo sapiens, UniProt P53778) | 100%
Serine/threonine-protein kinase Nek9 (NEK9, Homo sapiens, UniProt Q8TD19) | 81%
Mitogen-activated protein kinase kinase kinase 2 (MAP3K2, Homo sapiens, UniProt Q9Y2U5) | 89%
Receptor tyrosine-protein kinase erbB-2 (ERBB2, Homo sapiens, UniProt P04626) | 100%
Ephrin type-A receptor 6 (EPHA6, Homo sapiens, UniProt Q9UF33) | 91%

Sample 3
Species: human
Medium: microsomes or S9
Tested at: 2 µM
Time: 0.5 h
SMILES | remaining compound [%]
CC(C)n1ncc2c1N=C(O)CC2C1CCCCC1 (centres unmarked) | 67.1
CCn1nc(-c2csc(C)n2)nc1-c1ccc2[nH]c(C)nc2c1 | > 100
COc1ccccc1N(C)C(=O)c1cc(S(=O)(=O)N2CCOCC2)cn1C | 42.5
COc1ccc(CCC(=O)N[C@@H]2CN(S(C)(=O)=O)C[C@H]2CN(C)C)cc1 | > 99.9
COc1cc2c(cc1NC(=O)C(C(C)=O)=C(SC)SC)oc1ccccc12 | 14

Sample 4
Target: Protein max, full length (MAX, Homo sapiens, UniProt P61244-2, residues 1-151)
Technique: protein-binding microarray
Molecule type: double-stranded DNA, one strand shown
Medium: in vitro
Tested at: not given
Notes: k-mer, scored over probes, only values ≥0.25
Reading: higher = stronger binding
Sequence | E-score
CGTGGCGA | 0.374
ACCTCATG | 0.41
GAAACACA | 0.279
CCCGTGTC | 0.298
CACACCCG | 0.251
TAGCGTGA | 0.372
CGCATGGA | 0.4
ACGAGGGC | 0.374

Mixed results
Compound | cell line | technique | tested at | time | baseline | endpoint | result
COc1ccc(Oc2cc(NCCC(F)(F)F)c3ncc(-c4ccc(C(=O)NC5CC5)c(C)c4)n3n2)c(F)c1F | NCI-H1048 | Vi-Cell | 750 pM | 3 d | DMSO | cell count | 0.895 and 0.957
